Measured values of several laboratories.
Protocols differ between the studies behind these lines. “And” joins repeats or separate records; there may be more than shown. Numbers after ± are the reported error.

SMILES	target or system	test	test system	conditions	scale	measurement	value
CC(C)C[C@H](NC(=O)C[C@H](O)[C@H](CC(C)C)NC(=O)[C@H](Cc1c[nH]cn1)NC(=O)CNC(=O)[C@@H](NC(=O)[C@H](C)NC(=O)[C@H](Cc1c[nH]c2ccccc12)NC(=O)[C@H](CCC(N)=O)NC(=O)[C@@H](Cc1ccccc1)NC(=O)COCCOCCNC(=O)CCC(C(=O)O)N1CCN(CC(=O)O)CCN(CC(=O)O)CCN(CC(=O)O)CC1)C(C)C)C(N)=O (some centres unmarked) [lutetium-177 labelled]	–	–	female BALB/c nu/nu mice, pancreas	intravenous, 50 pmol, 1 h	–	tissue uptake	4 ± 2 %ID/g
O=C(Nc1cc(OCCN2CCCC2)c2ccccc2n1)c1cc(Cl)cc(C(=O)Nc2cc(OCCN3CCCC3)c3ccccc3n2)n1	double-stranded DNA	FRET melting	–	1 µM, pH 7.4, 60 mM potassium, together with: oligonucleotide 200 nM	–	delta Tm	0.1 ± 0.1 K
Cc1cc(/N=N/c2ccc(S(=O)(=O)Nc3ccccn3)cc2)c(N)cc1O	OCI-Ly1	–	–	0.5 µM, 120 h	–	viability	155%
CN(C)CCOc1cc(NC(=O)c2cc(Cl)cc(C(=O)Nc3cc(OCCN(C)C)c4ccccc4n3)n2)nc2ccccc12	human telomeric G-quadruplex DNA	FRET melting	–	1 µM, pH 7.4, together with: 60 mM potassium	–	ΔTm	27.9 ± 0.6 K
O=C(O)CCc1nc(-c2ccccc2)c(-c2ccccc2)o1	COS-7	–	–	100 µM, 24 h, 0.1% DMSO, unit not given	relative to: control	confluence	0.96 ± 0.07
CC(=O)c1c(C)cc2cc(O)cc(O[C@@H]3O[C@H](CO)[C@@H](O)[C@H](O)[C@H]3O)c2c1O	HepaRG co-cultured with HK-2	MTT	–	33.33 µM, 48 h	relative to: untreated control	cell viability	93.1 ± 26.5%
O=C(Nc1ccc2c(O)cc(S(=O)(=O)O)cc2c1)Nc1ccc2c(O)cc(S(=O)(=O)O)cc2c1	OCI-Ly1	–	–	1 µM, 120 h	–	viability	150%
CCn1cc(-c2cc(Cn3ccoc3=N)cc3c2CCN([C@@H](C)c2cc(OC)ccn2)C3=O)c(C(F)(F)F)n1	Lu-65	cell growth, inhibitor	–	120 h	–	EC50	> 30 µM
NC(=O)c1cnc2[nH]ccc2c1N[C@@H]1[C@@H]2CC3C[C@H]1C[C@@](O)(C3)C2	–	CD4+ CD28+ naive T cells, flow cytometry	Caucasian humans, peripheral blood	200 mg single dose	relative to: baseline	percent change	-1.65%
Cn1cc(/C=C/C(=O)c2cccc(F)c2)cc1/C=C/C(=O)NO	OCI-Ly1	–	–	1 µM, 120 h	–	viability	111%
Oc1ccccc1-c1n[nH]cc1-c1ccnc2ccccc12	KNS1 (Candida albicans)	kinase binding, MIB/MS competition	Candida albicans lysate	10 µM	relative to: DMSO	log2 fold change	0.31
O=C(O)CNC(=O)Cc1ccccc1	–	–	ventricular cardiomyocytes, C57BL/6 mouse	dose not given, 0.216 s	–	sarcomere length	1.62 µm
NCCOc1cc(C(=O)Nc2cc(OCCN)c3ccccc3n2)nc(C(=O)Nc2cc(OCCN)c3ccccc3n2)c1	double-stranded DNA	FRET melting	–	1 µM, pH 7.4, 60 mM potassium, together with: oligonucleotide 200 nM	–	delta Tm	0.5 ± 0.2 K
Cc1ccc(C(=O)Nc2ccc(S(=O)(=O)O)c3cc(S(=O)(=O)O)cc(S(=O)(=O)O)c23)cc1NC(=O)c1cccc(NC(=O)Nc2cccc(C(=O)Nc3cc(C(=O)Nc4ccc(S(=O)(=O)O)c5cc(S(=O)(=O)O)cc(S(=O)(=O)O)c45)ccc3C)c2)c1	OCI-Ly1	–	–	0.5 µM, 120 h	–	viability	144%
NCCCOc1cc(NC(=O)c2cc(OCCN)cc(C(=O)Nc3cc(OCCCN)c4ccccc4n3)n2)nc2ccccc12	human telomeric G-quadruplex DNA	FRET melting	–	1 µM, pH 7.4, together with: 60 mM potassium	–	ΔTm	35.1 ± 0.9 K
c1coc(-c2n[nH]cc2-c2ccnc3ccccc23)c1	IKS1 (Candida albicans)	kinase binding, MIB/MS competition	Candida albicans lysate	1 µM	relative to: DMSO	log2 fold change	-0.32

SMILES	target or system	test	test system	conditions	scale	measurement	value
O=C(O)c1ccc(O)c2ncccc12	OCI-Ly1	–	–	0.1 µM, 120 h	–	viability	192%
COc1cc(C(=O)Nc2cc(OCCN3CCCC3)c3ccccc3n2)nc(C(=O)Nc2cc(OCCN3CCCC3)c3ccccc3n2)c1	c-kit2 G-quadruplex DNA	FRET melting	–	1 µM, pH 7.4, together with: 60 mM potassium	–	ΔTm	11.2 ± 0.6 K
Nc1nc(OCc2cc(Br)cs2)c2[nH]cnc2n1	OCI-Ly1	–	–	1 µM, 120 h	–	viability	91.3%
CC(C)NCC(O)c1ccc(O)c(O)c1 (centres unmarked)	–	–	ventricular cardiomyocytes, C57BL/6 mouse	dose not given, 0.708 s	–	sarcomere length	1.72 µm
C[C@H]1C[C@H]2CSC(N)=N[C@@]2(c2nc(NC(=O)c3ccc(OC(F)F)cn3)cs2)CO1	–	refers to: Aβ1-40	healthy adults, plasma	5 mg once daily, day 10	relative to: placebo	percent change from baseline	-58%
COc1c(O)c(C)cc2c1C(=O)c1c(cc(O)c(O)c1O)C2=O	HepaRG co-cultured with HK-2	MTT	–	266.67 µM, 48 h	relative to: untreated control	cell viability	44 ± 9.9%
NCCOc1cc(NC(=O)c2cccc(C(=O)Nc3cc(OCCN)c4ccccc4n3)n2)nc2ccccc12	c-kit2 G-quadruplex DNA	FRET melting	–	1 µM, pH 7.4, together with: 60 mM potassium	–	ΔTm	19.7 ± 0.5 K
O=C(O)CCNc1cc(N2CCc3ccccc3CC2)nc(-c2ccccn2)n1	OCI-Ly1	–	–	0.1 µM, 120 h	–	viability	124%
CCn1cc(-c2cc(Cn3ccnc3)cc3c2CCN([C@H](c2cc(OC)ccn2)C2CC2)C3=O)c(C(F)(F)F)n1	Lu-65	cell growth, inhibitor	–	120 h	–	EC50	> 30 µM
O=C(Nc1cnc2ccccc2c1)c1cc2[nH]ccc2cc1Cl	COS-7	WST-8	–	1 µM, 24 h, 0.1% DMSO, unit not given	relative to: vehicle control	metabolic activity	1 ± 0.04
NCCCOc1cc(NC(=O)c2cc(OCc3c[nH]nn3)cc(C(=O)Nc3cc(OCCCN)c4ccccc4n3)n2)nc2ccccc12	human telomeric G-quadruplex DNA	FRET melting	–	1 µM, pH 7.4, together with: 60 mM potassium	–	ΔTm	13.2 ± 0.8 K
Cc1cc(C)c(CNC(=O)c2cc(-c3ccc(CN4CCOCC4)cc3)cc3c2cnn3C2CCCC2)c(=O)[nH]1	OCI-Ly1	–	–	1 µM, 120 h	–	viability	149%
Cn1cc(-c2ccc(-c3cncc(Cl)c3N3CCC4(CCNC4=O)CC3)cc2)cn1	COLO 205	gene expression, microarray, refers to: ULBP1 mRNA	–	concentration not given, 6 h	relative to: untreated cells	log2 fold change	1.29
O=C(/C=C/C=C/C=C/C1CCCCC1)NC1=C[C@@](O)(/C=C/C=C/C=C/C(=O)NC2=C(O)CCC2=O)[C@@H]2O[C@@H]2C1=O	COLO-678	cell growth, CellTiter-Glo	–	78 h	–	GI50	24.1 µM
CN(C)CCCOc1cc(NC(=O)c2cc(Cl)cc(C(=O)Nc3cc(OCCCN(C)C)c4ccccc4n3)n2)nc2ccccc12	human telomeric G-quadruplex DNA	FRET melting	–	1 µM, pH 7.4, together with: 60 mM potassium	–	ΔTm	35.9 ± 1 K
CC(C)n1ncc2c(C(=O)NCC3(C)CNC3)cc(C3CC3)nc21	Enterovirus D68	cytopathic effect	RD, US/MO/14-18949	15 nM	–	cell protection	0% and -0.137%

Excerpt of the above:
SMILES	target or system	test	test system	conditions	scale	measurement	value
COc1c(O)c(C)cc2c1C(=O)c1c(cc(O)c(O)c1O)C2=O	HepaRG co-cultured with HK-2	MTT	–	266.67 µM, 48 h	relative to: untreated control	cell viability	44 ± 9.9%
NCCCOc1cc(NC(=O)c2cc(OCc3c[nH]nn3)cc(C(=O)Nc3cc(OCCCN)c4ccccc4n3)n2)nc2ccccc12	human telomeric G-quadruplex DNA	FRET melting	–	1 µM, pH 7.4, together with: 60 mM potassium	–	ΔTm	13.2 ± 0.8 K
Cc1ccc(C(=O)Nc2ccc(S(=O)(=O)O)c3cc(S(=O)(=O)O)cc(S(=O)(=O)O)c23)cc1NC(=O)c1cccc(NC(=O)Nc2cccc(C(=O)Nc3cc(C(=O)Nc4ccc(S(=O)(=O)O)c5cc(S(=O)(=O)O)cc(S(=O)(=O)O)c45)ccc3C)c2)c1	OCI-Ly1	–	–	0.5 µM, 120 h	–	viability	144%
Nc1nc(OCc2cc(Br)cs2)c2[nH]cnc2n1	OCI-Ly1	–	–	1 µM, 120 h	–	viability	91.3%
COc1cc(C(=O)Nc2cc(OCCN3CCCC3)c3ccccc3n2)nc(C(=O)Nc2cc(OCCN3CCCC3)c3ccccc3n2)c1	c-kit2 G-quadruplex DNA	FRET melting	–	1 µM, pH 7.4, together with: 60 mM potassium	–	ΔTm	11.2 ± 0.6 K
